{"data": "Measurements collected from several papers", "note": "Parts stem from different laboratories: compare values within a part only."}
{"data": "Set 1", "target": "Microphthalmia-associated transcription factor, full length (MITF, Homo sapiens, UniProt O75030-10, residues 1-413)", "method": "protein-binding microarray", "molecule type": "double-stranded DNA, one strand shown", "sample": "in vitro", "concentration": "not given", "notes": "k-mer, scored over probes, only values ≥0.25", "direction": "higher = stronger binding", "Target sequence (chain)": "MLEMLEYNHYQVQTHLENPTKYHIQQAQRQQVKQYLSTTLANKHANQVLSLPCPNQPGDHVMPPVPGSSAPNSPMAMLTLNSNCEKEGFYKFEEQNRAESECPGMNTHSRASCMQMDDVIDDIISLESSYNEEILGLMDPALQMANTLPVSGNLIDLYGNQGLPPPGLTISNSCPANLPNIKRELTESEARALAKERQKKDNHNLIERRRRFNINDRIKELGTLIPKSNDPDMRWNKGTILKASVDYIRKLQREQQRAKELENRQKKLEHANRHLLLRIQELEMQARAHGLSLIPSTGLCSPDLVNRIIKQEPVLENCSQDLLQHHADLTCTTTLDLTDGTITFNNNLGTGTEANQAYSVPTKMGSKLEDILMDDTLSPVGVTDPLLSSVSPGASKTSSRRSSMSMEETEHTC"}
{"Oligonucleotide": "ATCACAC", "E-score": 0.317}
{"Oligonucleotide": "CGCATGA", "E-score": 0.423}
{"Oligonucleotide": "CATGCGG", "E-score": 0.324}
{"Oligonucleotide": "CACATCA", "E-score": 0.264}
{"Oligonucleotide": "ATGACTC", "E-score": 0.285}
{"data": "Set 2", "target": "Phosphate system positive regulatory protein PHO4, full length, GST-tagged (PHO4, Saccharomyces cerevisiae, UniProt P07270, residues 1-312)", "method": "competition protein-binding microarray", "molecule type": "double-stranded DNA, one strand shown", "sample": "in vitro", "concentration": "2 µM", "notes": "whole 60-bp probe, lowest competitor level", "added": "Cbf1 competitor, 0.05 µM", "direction": "higher = stronger binding", "Construct (chain)": "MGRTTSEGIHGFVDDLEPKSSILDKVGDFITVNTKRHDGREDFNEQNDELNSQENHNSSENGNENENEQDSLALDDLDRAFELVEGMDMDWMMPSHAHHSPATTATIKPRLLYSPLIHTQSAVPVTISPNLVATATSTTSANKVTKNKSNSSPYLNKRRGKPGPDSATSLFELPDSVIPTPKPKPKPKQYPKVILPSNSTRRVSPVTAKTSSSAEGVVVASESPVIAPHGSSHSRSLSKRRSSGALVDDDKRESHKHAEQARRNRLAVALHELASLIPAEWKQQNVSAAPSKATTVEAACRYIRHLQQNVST"}
{"Oligonucleotide": "GACCCGCCCCTGGGTCACGTGTTGCCTGCGGACCCGGTCTTGATTCGCTTGACGCTGCTG", "fluorescence intensity": "14600 a.u."}
{"Oligonucleotide": "CCTTCTCCCTGCATACACATGATAACCATCTACACCGTCTTGATTCGCTTGACGCTGCTG", "fluorescence intensity": "8360 a.u."}
{"Oligonucleotide": "CGTCCTAGTGATTGTCTTGTGGGTGCCATGAGGAAGGTCTTGATTCGCTTGACGCTGCTG", "fluorescence intensity": "8040 a.u."}
{"Oligonucleotide": "TGACTGAAGACGAATTACGTGCTTTTTTCCAACCTTGTCTTGATTCGCTTGACGCTGCTG", "fluorescence intensity": "4810 a.u."}
{"data": "Set 3", "target": "Histone acetyltransferase KAT6A, winged helix 2, GST fusion (KAT6A, Homo sapiens, UniProt Q92794, residues 85-181)", "method": "protein binding microarray", "molecule type": "double-stranded DNA, one strand shown", "sample": "in vitro", "concentration": "not given", "notes": "8-mer, flanks averaged, mean of 2 arrays, mostly near background", "reference": "not given", "direction": "higher = stronger binding", "Target sequence (chain)": "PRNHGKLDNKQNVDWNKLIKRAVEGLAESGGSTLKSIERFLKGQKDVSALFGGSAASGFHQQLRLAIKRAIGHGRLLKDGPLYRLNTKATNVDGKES"}
{"Oligonucleotide": "AGCCCCGC", "E-score": 0.01}
{"Oligonucleotide": "CCGTCTCA", "E-score": -0.0579}
{"Oligonucleotide": "GCTGTCAA", "E-score": 0.145}
{"Oligonucleotide": "GCTGAATA", "E-score": -0.019}
{"Oligonucleotide": "CACCTGTA", "E-score": -0.113}
{"data": "Single results of other studies"}
{"Molecule": "PhoQ, residues 284 288 289 292 302 303 SQSLSM", "target": "PhoP, residues 12 14 15 18 19 SMASL (Escherichia coli, UniProt P23836)", "test": "Sort-seq, item: YFP reporter", "test system": "E. coli", "conditions": "PhoQ-PhoP variant library, added: 10 µM Mg2+", "how to read": "reference: high Mg2+ state, higher = stronger signaling", "measurement": "fold induction", "value": 12.1}
{"note": "For quick reference, copied from above (set 2):"}
{"Oligonucleotide": "GACCCGCCCCTGGGTCACGTGTTGCCTGCGGACCCGGTCTTGATTCGCTTGACGCTGCTG", "fluorescence intensity": "14600 a.u."}
{"Oligonucleotide": "CCTTCTCCCTGCATACACATGATAACCATCTACACCGTCTTGATTCGCTTGACGCTGCTG", "fluorescence intensity": "8360 a.u."}
